Experimental data gathered from unrelated publications.
Numbered parts are unrelated; each lists some results of a single study. Several values in a cell are separate wells, animals, samples, runs or records.

Study 1 — observed: cell growth or viability; method: ATP luminescence; time: 6 days; quantity: viability
SMILES: Cc1ncsc1-c1ccc(C(CO)NC(=O)C2CC(O)CN2C(=O)C(C(C)C)n2cc(-c3ccc(COc4c(-c5c(C)c(F)cc6[nH]ncc56)c(C5CC5)cc5c(N6CC7CC6CN7)nc(OC6CCOCC6)nc45)cc3)nn2)cc1 (stereo not drawn)
cell line = PK-59; conditions = 1 nM; result = 86.7% and 87.7% and 90.4% and 75.7%
cell line = T24; conditions = 30 nM; result = 89.9% and 101% and 95%
cell line = PSN1; conditions = 1 nM; result = 87.3% and 112% and 88.3% and 101%
cell line = GP2d; conditions = 3 nM; result = 64.8% and 49.7% and 50% and 44.1%
cell line = COLO 320; conditions = 10 nM; result = 102% and 83.2% and 81.7% and 88.9%
cell line = ASPC1; conditions = 3 nM; result = 87.5% and 80.7% and 93.7% and 66.4%

Study 2 — observed: thermal unfolding; method: differential scanning fluorimetry; concentration: 5.5 µM; reading: higher = more unfolded; quantity: SYPRO Orange fluorescence
SMILES: C[C@@H]1CN(c2ccc(-c3cc(C(=O)NCCOCCOCCOCCOCCNC(=O)Cn4cc(-c5[nH]cc(C(=O)N[C@@H](CC(N)=O)c6ccc(F)c(Cl)c6)c5-c5ccc(Cl)cc5F)cn4)ccc3F)cc2NC(=O)c2c[nH]c(=O)cc2C(F)(F)F)C[C@H](C)N1C
WDR5: WD repeat-containing protein 5 (WDR5, Homo sapiens, UniProt P61964)
DCAF1: DDB1- and CUL4-associated factor 1 (DCAF1, Homo sapiens, UniProt Q9Y4B6)
UniProt Q9Y4B6, sequence (whole entry, looked up): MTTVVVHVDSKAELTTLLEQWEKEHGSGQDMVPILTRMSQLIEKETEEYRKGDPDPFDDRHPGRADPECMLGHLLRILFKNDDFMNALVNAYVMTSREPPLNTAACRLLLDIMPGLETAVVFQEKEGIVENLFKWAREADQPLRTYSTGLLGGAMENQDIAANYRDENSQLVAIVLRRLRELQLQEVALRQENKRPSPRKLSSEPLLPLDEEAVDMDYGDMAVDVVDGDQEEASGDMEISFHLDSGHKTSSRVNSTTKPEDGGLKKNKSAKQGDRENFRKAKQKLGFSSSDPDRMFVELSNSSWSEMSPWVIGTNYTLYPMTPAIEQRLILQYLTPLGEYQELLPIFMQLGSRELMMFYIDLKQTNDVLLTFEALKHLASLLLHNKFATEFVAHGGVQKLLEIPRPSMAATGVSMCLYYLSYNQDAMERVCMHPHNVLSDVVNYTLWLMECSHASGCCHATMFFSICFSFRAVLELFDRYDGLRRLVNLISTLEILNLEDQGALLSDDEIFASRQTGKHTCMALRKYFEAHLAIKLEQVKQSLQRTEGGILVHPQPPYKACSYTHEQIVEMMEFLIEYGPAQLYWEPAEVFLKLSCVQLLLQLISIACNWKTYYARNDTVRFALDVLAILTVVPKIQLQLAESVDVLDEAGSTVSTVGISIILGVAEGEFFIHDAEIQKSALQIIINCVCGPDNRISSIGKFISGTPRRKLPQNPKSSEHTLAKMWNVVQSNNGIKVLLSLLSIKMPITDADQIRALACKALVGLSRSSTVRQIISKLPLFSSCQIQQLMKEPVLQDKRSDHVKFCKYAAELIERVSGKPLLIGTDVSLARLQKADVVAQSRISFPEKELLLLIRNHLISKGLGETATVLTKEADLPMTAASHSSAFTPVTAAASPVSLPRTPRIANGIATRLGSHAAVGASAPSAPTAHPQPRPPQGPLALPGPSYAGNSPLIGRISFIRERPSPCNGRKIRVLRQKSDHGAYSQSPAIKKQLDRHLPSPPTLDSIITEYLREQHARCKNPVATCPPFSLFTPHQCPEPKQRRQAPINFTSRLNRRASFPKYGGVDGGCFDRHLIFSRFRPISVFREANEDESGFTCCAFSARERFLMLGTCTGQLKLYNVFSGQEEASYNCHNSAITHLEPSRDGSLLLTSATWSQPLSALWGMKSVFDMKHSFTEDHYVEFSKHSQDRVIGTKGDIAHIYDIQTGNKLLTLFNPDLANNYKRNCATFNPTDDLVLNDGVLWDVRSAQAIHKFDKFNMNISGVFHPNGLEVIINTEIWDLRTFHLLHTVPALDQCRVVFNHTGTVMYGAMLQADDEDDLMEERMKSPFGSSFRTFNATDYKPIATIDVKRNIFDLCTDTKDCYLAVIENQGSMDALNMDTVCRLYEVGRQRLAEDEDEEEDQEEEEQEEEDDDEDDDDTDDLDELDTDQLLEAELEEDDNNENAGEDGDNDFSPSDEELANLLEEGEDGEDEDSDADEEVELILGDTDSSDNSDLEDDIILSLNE
target = WDR5; conditions = 64.81 °C; result = 7730 a.u.
target = DCAF1; conditions = 26.2 °C; result = 7610 a.u.
target = DCAF1; conditions = 62.41 °C; result = 49400 a.u.
target = DCAF1; conditions = 77.01 °C; result = 47100 a.u.
target = DCAF1; conditions = 45.6 °C; result = 12400 a.u.
target = WDR5; conditions = 72.01 °C; result = 7590 a.u.
target = WDR5; conditions = 25.6 °C; result = 14700 a.u.

Further values, each from its own experiment
PKMYT1: Membrane-associated tyrosine- and threonine-specific cdc2-inhibitory kinase (PKMYT1, Homo sapiens, UniProt Q99640)
UniProt Q99640, sequence (whole entry, looked up): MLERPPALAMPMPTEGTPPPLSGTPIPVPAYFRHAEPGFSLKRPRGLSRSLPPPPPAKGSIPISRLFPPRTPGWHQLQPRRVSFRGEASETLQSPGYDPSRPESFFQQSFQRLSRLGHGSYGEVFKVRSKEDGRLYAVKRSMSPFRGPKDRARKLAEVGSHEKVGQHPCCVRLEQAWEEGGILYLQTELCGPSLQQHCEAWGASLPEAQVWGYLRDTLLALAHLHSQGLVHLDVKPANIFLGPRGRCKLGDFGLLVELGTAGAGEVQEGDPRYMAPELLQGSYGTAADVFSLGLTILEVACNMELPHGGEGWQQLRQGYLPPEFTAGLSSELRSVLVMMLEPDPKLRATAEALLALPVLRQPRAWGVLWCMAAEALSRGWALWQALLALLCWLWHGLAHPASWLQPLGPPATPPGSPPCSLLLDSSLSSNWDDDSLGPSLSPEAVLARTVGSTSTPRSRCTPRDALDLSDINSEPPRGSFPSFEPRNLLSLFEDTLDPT
Compound = Cc1ccc(O)c(C)c1-c1cnc2[nH]c(-c3cnc(N4CCC5(CC4)CC(N4CCN(c6ccc7c(c6)C(=O)N(C6CCC(=O)NC6=O)C7=O)CC4)CO5)nc3)cc2c1C#N (mixture of isomers); tested on = PKMYT1; assay = binding, HTRF; conditions = 12.35 nM; quantity = inhibition; result = 81.1% and 78.8%
Compound = CC(=O)N[C@@H](Cc1c[nH]c2ccccc12)C(=O)N[C@@H](CCC(=O)C=[N+]=[N-])C(N)=O; test system = CES1-/- mouse GI tissue homogenate; conditions = 60 min; quantity = remaining compound; result = 79%
Compound = Cc1ccc(O)c(C)c1-c1cnc2[nH]c(-c3cnc(N)nc3)cc2c1C#N; tested on = CSNK2A2; assay = KINOMEscan; conditions = 1000 nM; how to read = reference: control; quantity = remaining binding; result = 34%
Compound = Cc1ccc(O)c(C)c1-c1cnc2[nH]c(-c3cnc(N4CCC(CCN5CCN(c6ccc7c(c6)C(=O)N(C6CCC(=O)NC6=O)C7=O)CC5)CC4)nc3)cc2c1C#N (racemic); tested on = PKMYT1; assay = binding, HTRF; conditions = 0.46 nM; quantity = inhibition; result = 4.88% and 3.45%
Compound = Cc1ccc(O)c(C)c1-c1cnc2[nH]c(-c3cnc(N4CCC5(CC4)CC(N4CCN(c6ccc(NC7CCC(=O)NC7=O)cc6F)CC4)CO5)nc3)cc2c1C#N (stereo not drawn); test system = simulated gastric fluid; conditions = 12 h; quantity = remaining compound; result = 87%

Repeated from above (further values, each from its own experiment):
Compound = Cc1ccc(O)c(C)c1-c1cnc2[nH]c(-c3cnc(N4CCC5(CC4)CC(N4CCN(c6ccc7c(c6)C(=O)N(C6CCC(=O)NC6=O)C7=O)CC4)CO5)nc3)cc2c1C#N (mixture of isomers); tested on = PKMYT1; assay = binding, HTRF; conditions = 12.35 nM; quantity = inhibition; result = 81.1% and 78.8%
